# Assay results gathered from unrelated publications.
# Numbered parts are unrelated; each lists some results of a single study.

# Set 1 — technique: RNA Bind-n-Seq; form: RNA; matrix: in vitro; concentration: 1 µM; notes: whole 134-nt RNA, ends assumed; together with: 150 mM KCl; baseline: input library; direction: higher = stronger binding
# Target: Ras GTPase-activating protein-binding protein 1, C-terminal RGG region (G3BP1, Homo sapiens, UniProt Q13283)
# UniProt Q13283, sequence (whole entry, looked up): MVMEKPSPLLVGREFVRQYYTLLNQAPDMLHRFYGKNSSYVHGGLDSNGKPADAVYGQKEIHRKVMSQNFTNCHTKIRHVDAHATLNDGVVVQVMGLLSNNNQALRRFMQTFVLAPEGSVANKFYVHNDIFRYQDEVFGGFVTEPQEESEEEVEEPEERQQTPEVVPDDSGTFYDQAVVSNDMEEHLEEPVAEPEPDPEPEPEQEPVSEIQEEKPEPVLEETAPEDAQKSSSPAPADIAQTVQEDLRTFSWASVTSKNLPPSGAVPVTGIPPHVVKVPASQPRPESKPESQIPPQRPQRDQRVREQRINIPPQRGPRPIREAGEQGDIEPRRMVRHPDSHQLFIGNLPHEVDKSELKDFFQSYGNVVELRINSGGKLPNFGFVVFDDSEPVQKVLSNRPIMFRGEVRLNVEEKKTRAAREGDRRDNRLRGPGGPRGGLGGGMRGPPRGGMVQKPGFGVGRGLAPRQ
Oligonucleotide,log2 enrichment
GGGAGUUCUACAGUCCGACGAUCCAAGUCCUGUGCUACACAUCGUAUGUACCGAAUCGGGUUUUUUUGGGAGGGAGGGAAAGUAUUAUGUUACGCCGUUCGGAUCUGCACUUCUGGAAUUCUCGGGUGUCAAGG,1.42
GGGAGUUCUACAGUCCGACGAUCCACAGACAACACGCACCCACAGAGACACAGAGGGAAGGGGUUGGGAUGGGGACAGGGUGCACAGCAGGGCGGGGUAGGACCCCAGCCCCUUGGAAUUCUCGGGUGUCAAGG,-0.151
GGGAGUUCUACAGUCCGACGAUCUAACUUUAGAGGAGGAUCUGAUGGAUAUGGCAGUGGACGUGGAUUUGGGGAUGGCUAUAAAGGGUAUGGAGGAGGACCUGGAGGUGGCAAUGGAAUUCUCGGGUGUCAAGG,-1.16
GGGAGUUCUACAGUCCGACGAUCGUCCUGUGCUACACAUCGUAUGUACCGAAUCGGGAAAGGGUUUUUUUGGGUUUUUGGGAAAGUAUUAUGUUACGCCGUUCGGAUCUGCACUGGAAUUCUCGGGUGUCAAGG,-0.421
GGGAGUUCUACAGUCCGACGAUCCUGUGCUACACAUCGUAUGUACCGAAUCGGGGAAAAAAAGGGAAAAAAAGGAAAAAAAGGGGAAAGUAUUAUGUUACGCCGUUCGGAUCUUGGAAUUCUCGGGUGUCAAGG,-1.28
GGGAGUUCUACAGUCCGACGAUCGCAGGAAGUAAAAACAAAUGGAAAUGCUUCGGAUAGUGGCAGGGGUGGGGGUUGCUAAGGAAAGGGUGGGAUGGGAGUGGGUAAAAAAUUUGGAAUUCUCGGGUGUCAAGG,1.97
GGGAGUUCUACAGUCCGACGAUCCACAGACAACACGCCCCCACACAGACACAGAGGGAAGGGGUUGGGAUGGGGACAGGGUGCACAGCAGGGCGGGGUAGGACCCCAGCCCCUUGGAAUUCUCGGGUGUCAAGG,-0.41
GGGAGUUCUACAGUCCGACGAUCCCUGUGCUACACAUCGUAUGUACCGAAUCGGGAAAAAAGGGAAAAAAGGGGAAAAAAGGGAAAGUAUUAUGUUACGCCGUUCGGAUCUGCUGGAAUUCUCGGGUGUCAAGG,-1.43
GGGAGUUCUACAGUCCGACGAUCAAGUCCUGUGCUACACAUCGUAUGUACCGAAUCGGGAAAAAGGGAAAGGGUUUGGGAAAGUAUUAUGUUACGCCGUUCGGAUCUGCACUUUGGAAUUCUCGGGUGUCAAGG,1.36
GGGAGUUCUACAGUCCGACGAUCUGGAUCUUGGAGGGACCAACUUCCGUGUGCUUUGGGUGAAAGUAACGGACAAUGGGCUCCAGAAGGUGGAGAUGGAGAAUCAGAUCUAUGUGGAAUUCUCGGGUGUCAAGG,-1.62

# Set 2 — technique: protein binding microarray; form: double-stranded DNA, one strand shown; matrix: in vitro; concentration: not given; baseline: not given; direction: higher = stronger binding
# Target: Histone acetyltransferase KAT6A, winged helix 2, GST fusion (KAT6A, Homo sapiens, UniProt Q92794, residues 85-181)
# Notes: 8-mer, flanks averaged, mean of 2 arrays, mostly near background
# Residues (chain): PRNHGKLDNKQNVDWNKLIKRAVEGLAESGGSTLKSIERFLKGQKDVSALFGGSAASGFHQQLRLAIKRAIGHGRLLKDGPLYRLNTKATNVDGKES
Oligonucleotide,E-score
GCCCTCTA,-0.0382
ATAAGCAT,-0.0272
CAAGTGAA,0.0131
GGTGATTA,-0.0172
AGCCAGCG,0.0238
ATATTCCC,0.0157
AGGAGCAA,0.00437
ACAATTTG,-0.0496
CAGTCAGC,-0.0464
ACCAACTC,-0.0908
AAGTCATG,-0.179
AGGCATCC,-0.178
CACCGATA,-0.0442
GCCGGCGA,0.133
GAATGCGA,0.102
CATAACGG,-0.0914
CCGCGAGA,-0.0608
GTCTACAA,-0.146
AGCAACTA,0.214
TAGGATGA,-0.0268

# Set 3 — technique: protein-binding microarray; form: double-stranded DNA, one strand shown; matrix: in vitro; concentration: 0.8 µM; notes: whole 60-bp probe, no competitor; direction: higher = stronger binding
# Target: Centromere-binding protein 1, full length, N-terminal tag (CBF1, Saccharomyces cerevisiae, UniProt P17106, residues 1-351)
# UniProt P17106, sequence (whole entry, looked up): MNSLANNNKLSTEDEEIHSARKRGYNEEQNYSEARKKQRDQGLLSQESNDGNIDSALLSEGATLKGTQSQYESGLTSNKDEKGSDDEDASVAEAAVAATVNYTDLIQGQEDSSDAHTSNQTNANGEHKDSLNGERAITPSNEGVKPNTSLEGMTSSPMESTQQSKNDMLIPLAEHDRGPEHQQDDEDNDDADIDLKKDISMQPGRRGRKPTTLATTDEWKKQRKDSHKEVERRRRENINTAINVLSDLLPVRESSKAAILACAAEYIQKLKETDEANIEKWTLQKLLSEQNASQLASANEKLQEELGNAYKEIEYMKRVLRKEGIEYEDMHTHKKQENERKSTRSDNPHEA
Oligonucleotide,fluorescence intensity
CTATATATATGCGGCTGCGTGCGTGTATTCTCCTTCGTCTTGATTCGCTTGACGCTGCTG,555 a.u.
CTAACAGCTCACTTGTGCATGAAGTTCATGTTTTTCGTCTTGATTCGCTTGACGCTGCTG,499 a.u.
GAATGAAAAGTTCTCCACACGTGTTTTTCTCTTTAGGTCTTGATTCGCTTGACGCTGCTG,3340 a.u.
CTATCAAAAATAATTGACGTCATCGCTACAAGTTTCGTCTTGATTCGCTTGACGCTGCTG,536 a.u.
GAATTGAAATGATGACATGTGGAAATATAACAGTAGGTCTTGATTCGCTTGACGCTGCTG,747 a.u.
CCTAACTACTATAATCATGAGATATAGCTTCGTACAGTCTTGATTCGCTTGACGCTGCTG,551 a.u.
GAAATTCATACGCATCTCATGATGAGTCGAGCGTAGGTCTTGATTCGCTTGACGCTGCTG,525 a.u.
GAAGTGAAAAATTATCACGATGGCAAAAGAGAGTAGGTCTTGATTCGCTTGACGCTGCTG,663 a.u.
GAAATGCTTTATTGACACGTGAGAAGGGAAACTTAGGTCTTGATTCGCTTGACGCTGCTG,4270 a.u.
GAACTCATGGATCCTCGTGAGCAACATTTTCATTAGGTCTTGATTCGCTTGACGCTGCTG,684 a.u.
GAATCTTCCAAAAATCACGTTGATGCCACCAGGTAGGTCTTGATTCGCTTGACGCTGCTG,1010 a.u.
CTAACACACCGCGCACACGTGCTTTATTTCTTTTTCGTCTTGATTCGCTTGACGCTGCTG,4650 a.u.
CTATCGTTCATCGCAAGGGTGACGGCAGATGTATTCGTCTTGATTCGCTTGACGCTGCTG,514 a.u.
TGTACGAAGCTATAGAACGTGTATATAGTAGTTAGGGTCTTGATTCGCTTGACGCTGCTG,570 a.u.
GAACTTACAACTGGTGGTGGTTCATTACCTACGTAGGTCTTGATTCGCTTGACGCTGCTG,513 a.u.
CCTAACTACTATACACACGTAGGATAGCTTCGTACAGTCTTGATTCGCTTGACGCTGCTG,540 a.u.
CTATCCAGCATGAATCAGCAGAACAACTTTTATTTCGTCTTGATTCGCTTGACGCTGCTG,527 a.u.
CTAAAGAAATCTTAGGACATCAGAAATGTACGTTTCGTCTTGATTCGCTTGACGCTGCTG,509 a.u.
GAAGACTTCTCGGAACACATGCTAAAGCTCCAGTAGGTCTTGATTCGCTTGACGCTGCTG,667 a.u.
GAAATGGTAGGAGCACGCGTGAAAGCAGGGTCTTAGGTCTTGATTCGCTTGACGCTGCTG,598 a.u.
GAAGATTAGAAATTCTTCGTGATTAATTCCTACTAGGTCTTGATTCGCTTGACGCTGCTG,504 a.u.
CTAAGATTAATGGTGCATCAGAGCTTTCCCTTTTTCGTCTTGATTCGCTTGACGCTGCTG,492 a.u.
CCTAACTACTATAATCATCAGTCATAGCTTCGTACAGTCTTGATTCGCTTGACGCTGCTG,543 a.u.
CCTAACTACTATACATGCGTGGGATAGCTTCGTACAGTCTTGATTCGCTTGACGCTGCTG,532 a.u.
CTATTTTTACGAGGGCACGTTATAACGTTGGACTTCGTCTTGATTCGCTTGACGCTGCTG,689 a.u.

# Set 4 — technique: RNA Bind-n-Seq; form: RNA; matrix: in vitro; concentration: 365 nM; baseline: no-protein control; direction: higher = stronger binding
# Target: RNA binding protein fox-1 homolog 2, RRM domain, GST-SBP tag (RBFOX2, Homo sapiens, UniProt O43251-10, residues 100-194)
# Notes: natural RNA segment, single round, ends assumed
# Residues (chain): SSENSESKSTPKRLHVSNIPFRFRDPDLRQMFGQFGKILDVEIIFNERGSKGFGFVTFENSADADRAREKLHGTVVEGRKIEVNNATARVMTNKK
Oligonucleotide,RBNS enrichment (R)
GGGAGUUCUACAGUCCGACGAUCCGUCAGCGGGCAUUAUUACCGUGUCUUGUAAAGGGUCGGUUUUGUUAUGCAACAUGCAGAAUGCUGUUUUUAGCCUUGUUUUACCAGAGUUGUUUUUUUUUUCAGUUAUUUGGAAUUCUCGGGUGCCAA,1.47
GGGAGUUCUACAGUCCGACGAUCGGGAAGGAGGGCCGUGUGGUGCUUUGCUAGAUAGGACGGUUUUUGCAAAGCACCUGGAGAUGUUUGCUGGGAGAUAGACUCCCACUCCACAAAGGUGCUGGGUGGCUCUCUGGAAUUCUCGGGUGCCAA,14.5
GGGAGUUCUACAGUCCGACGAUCGACCGAAUGGCUGGGUUUAGUAAAUAAAACACUAAGCAUGACGGGCUCCCGCCUCUUGCCGCUCUGCUCAGUCUGCUGUGGGAAUCCUUGCGUCCCAGCCCACCUCACCUUGGAAUUCUCGGGUGCCAA,1.07
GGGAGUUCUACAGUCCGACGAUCGAGAAACUGGAGUGUUUUUGAUUUCAUGGUAAAAGUUUGUGUGUUUUACAUUUGAAUGUUCACAGUUUUCUCUCAGAGAAGUGCCAGACAUUGUUUUGUGCUUUUGAAGAUGGAAUUCUCGGGUGCCAA,2.18
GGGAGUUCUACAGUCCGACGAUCCUGCCCAGUGAGCAACUUAUACCCUGCACUGGAUAGUGGCAAGUACCCAGCCUGGGACUUCCCUGGAACUGAGGGAUGCAUAGCUGUCUGGGGAAGCACUGACGGCCACUUGGAAUUCUCGGGUGCCAA,0.577
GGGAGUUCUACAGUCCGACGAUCAGAUGUGUAUGGCAAUGUUAACUGAACCUGUUUGUAUUAAAAAGUAAAUCCCUAUGAGGAAUGUGGAAAUGUCCGUCAAAGCAUUGUCUUUUAAGUAAGUUCCAAGAUCCUGGAAUUCUCGGGUGCCAA,1.4
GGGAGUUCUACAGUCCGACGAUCUGUACUUAAGUGCUGAUGACUGUUAGCCAGUUUACAACUUUUUACCAUCGAUGUACACAUUUGAUAUUUGUGCAGUAAAUAGACUGUACCUAUAAAAAAUUUUAUUGAUGUGGAAUUCUCGGGUGCCAA,0.407
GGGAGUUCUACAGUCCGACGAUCCUGUCUUGGAUACCUAUUUAAAUGUGUGUUCUGUUUUGUUUUUUAACGAUUUUUAAAUAACGUCUGUGCCUCCACUGGUUGAGGGUGGAACCUCCAGGCAGGAACCGGCUUGGAAUUCUCGGGUGCCAA,1.37
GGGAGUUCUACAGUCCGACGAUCUACUGGCCUACCCUUACCCCAUGCAUUCUUCCUGUCUGCACUGCCUGGGCCAAGGGGCAGAAACACUCUGCUCUUCUUCCCCAGGACAUUCCCAGGCUUGGGGUUUUUCUUGGAAUUCUCGGGUGCCAA,0.266

# Repeated from above (set 3):
Oligonucleotide,fluorescence intensity
CTATCGTTCATCGCAAGGGTGACGGCAGATGTATTCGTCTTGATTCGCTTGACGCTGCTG,514 a.u.
TGTACGAAGCTATAGAACGTGTATATAGTAGTTAGGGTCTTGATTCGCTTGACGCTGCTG,570 a.u.
GAACTTACAACTGGTGGTGGTTCATTACCTACGTAGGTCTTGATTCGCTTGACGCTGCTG,513 a.u.
CCTAACTACTATACACACGTAGGATAGCTTCGTACAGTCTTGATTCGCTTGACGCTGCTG,540 a.u.
CTATCCAGCATGAATCAGCAGAACAACTTTTATTTCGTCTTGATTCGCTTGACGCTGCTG,527 a.u.
CTAAAGAAATCTTAGGACATCAGAAATGTACGTTTCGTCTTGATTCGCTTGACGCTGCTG,509 a.u.
GAAGACTTCTCGGAACACATGCTAAAGCTCCAGTAGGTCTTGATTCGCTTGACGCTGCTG,667 a.u.
GAAATGGTAGGAGCACGCGTGAAAGCAGGGTCTTAGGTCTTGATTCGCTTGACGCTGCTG,598 a.u.
GAAGATTAGAAATTCTTCGTGATTAATTCCTACTAGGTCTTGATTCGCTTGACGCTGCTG,504 a.u.
CTAAGATTAATGGTGCATCAGAGCTTTCCCTTTTTCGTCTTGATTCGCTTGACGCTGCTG,492 a.u.
CCTAACTACTATAATCATCAGTCATAGCTTCGTACAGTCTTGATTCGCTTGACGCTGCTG,543 a.u.
